Experimental data from different studies.
Numbered parts are unrelated; each lists some results of a single study. Substitutions count along the parent as printed.

Sample 1 — target: CCNB2, cyclin fold, Cln2 fusion (human); method: yeast growth competition, sequencing; sample: yeast; setting: weak parent motif; reference: not given; reading: higher = stronger binding
Starting sequence: INSM1 docking peptide (human); PKAIRKLHFEDEV; partner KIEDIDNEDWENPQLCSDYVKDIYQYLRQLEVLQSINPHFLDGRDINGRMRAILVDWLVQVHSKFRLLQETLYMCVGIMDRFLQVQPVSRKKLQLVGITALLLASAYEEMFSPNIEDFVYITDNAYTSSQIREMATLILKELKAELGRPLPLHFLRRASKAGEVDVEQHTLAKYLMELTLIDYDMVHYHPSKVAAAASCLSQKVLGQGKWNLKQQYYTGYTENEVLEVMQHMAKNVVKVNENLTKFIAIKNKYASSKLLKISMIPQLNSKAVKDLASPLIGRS
| Change | normalised enrichment score |
| --- | --- |
| PKALRKLHFEDEV [I4L] | 0.582 |
| PKAIRKLHFEWEV [D11W] | 0.156 |
| PKAIRKCHFEDEV [L7C] | 0.641 |
| PKAIRKLHFEDQV [E12Q] | 0.0938 |
| PKAIRKLHFTDEV [E10T] | 0.322 |
| PKAIRKLHFEDIV [E12I] | 0.437 |
| PKAIRKPHFEDEV [L7P] | -0.0139 |
| PKKIRKLHFEDEV [A3K] | 0.774 |
| PKAIRKLHFEDVV [E12V] | 0.215 |
| PKAIRKLLFEDEV [H8L] | 0.491 |
| PKAILKLHFEDEV [R5L] | -0.0945 |
| PDAIRKLHFEDEV [K2D] | 0.189 |
| PHAIRKLHFEDEV [K2H] | 0.261 |
| PSAIRKLHFEDEV [K2S] | 0.736 |
| PKAIRKLHIEDEV [F9I] | 0.0598 |
| PKAIRKLHFEDPV [E12P] | 0.303 |
| PKAMRKLHFEDEV [I4M] | 0.276 |
| PKAIRLLHFEDEV [K6L] | 0.0706 |
| PKAIRKLHFEDFV [E12F] | 0.397 |
| PKAFRKLHFEDEV [I4F] | 0.0672 |
| PKNIRKLHFEDEV [A3N] | -0.0118 |
| PKAIRKLEFEDEV [H8E] | 0.126 |
| PKAIRKLIFEDEV [H8I] | 0.259 |
| PKAIRKLHFHDEV [E10H] | 0.0784 |

Sample 2 — method: protein-binding microarray; molecule type: double-stranded DNA, one strand shown; sample: in vitro; concentration: not given; reading: higher = stronger binding
Target: Myc proto-oncogene protein, bHLH-zipper, MAX partner unstated (MYC, Homo sapiens, UniProt P01106, residues 368-449)
Chain of UniProt P01106 (368-449, looked up): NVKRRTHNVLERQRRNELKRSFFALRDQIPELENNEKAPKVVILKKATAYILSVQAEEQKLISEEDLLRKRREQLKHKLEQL
Setting: k-mer, scored over probes, only values ≥0.25
| Strand | E-score |
| --- | --- |
| AGGTGTGC | 0.33 |
| CACGCGCG | 0.431 |
| ACGCGTGC | 0.44 |
| CGTCGTGC | 0.28 |
| ACGTGTGG | 0.443 |
| ACCATCTG | 0.266 |
| AAGGCCAC | 0.265 |
| CATCCATG | 0.25 |
| AGCATGGA | 0.363 |
| ACATATGG | 0.312 |
| CCCCACAC | 0.313 |
| CGTGCCGC | 0.382 |
| CACGAGCG | 0.333 |
| AAGGCATG | 0.372 |
| GCCCGCCC | 0.34 |
| GCCACGCC | 0.431 |
| CATGGCGC | 0.358 |
| ACATGACA | 0.339 |
| ACGTGCCC | 0.432 |
| ATGCGCAT | 0.378 |
| CGTGACGC | 0.299 |
| CGTGGTTA | 0.389 |
| AACCACAC | 0.306 |

Sample 3 — method: protein binding microarray; molecule type: double-stranded DNA, one strand shown; sample: in vitro; concentration: not given; reference: not given; reading: higher = stronger binding
Target: Histone acetyltransferase KAT6A, winged helix 2, GST fusion (KAT6A, Homo sapiens, UniProt Q92794, residues 85-181)
Setting: 8-mer, flanks averaged, mean of 2 arrays, mostly near background
Construct (chain): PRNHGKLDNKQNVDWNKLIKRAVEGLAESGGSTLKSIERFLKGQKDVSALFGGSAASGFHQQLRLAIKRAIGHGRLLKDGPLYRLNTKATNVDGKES
| Strand | E-score |
| --- | --- |
| CGCAGTTA | 0.0515 |
| ATCGACTA | -0.0668 |
| GGGAAGCA | 0.0431 |
| AAAATCGT | -0.0974 |
| ATAATCTG | -0.136 |
| AAGTTTAT | -0.111 |
| CTAGGGCA | -0.0621 |
| CTCAACCC | -0.00327 |
| CGATCCAC | -0.107 |
| TATGTTCA | 0.00481 |
| AACGGTTA | -0.24 |
| ACCAGGTC | -0.123 |
| CAGACACA | 0.0671 |
| CCCCAGAC | -0.0157 |
| AGATTTTA | -0.0645 |
| AGCAATAG | -0.028 |
| GAAAGCCA | 0.037 |
| AGAGATAA | -0.0355 |
| CGTCAGGC | 0.103 |
| TCTATTCA | -0.0313 |
| CTCTGGAC | 0.0369 |
| AGAATTAT | 8e-05 |
| GATGAAAA | 0.0102 |
| CGAGTTAC | 0.104 |

Sample 4 — target: FOS, bZIP domain (human); method: DHFR protein complementation; sample: yeast; reference: wild-type JUN-FOS pair; reading: higher = stronger binding
Setting: single substitutions, most at no-binding floor
Starting sequence: JUN, bZIP domain (human); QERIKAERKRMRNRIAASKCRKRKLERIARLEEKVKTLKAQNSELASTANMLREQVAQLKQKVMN; partner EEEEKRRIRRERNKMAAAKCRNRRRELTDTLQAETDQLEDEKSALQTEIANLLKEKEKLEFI
| Change | binding fitness [natural log] |
| --- | --- |
| A29C | -0.271 |
| I28V | -0.0571 |
| R30W | 0.0102 |
| V35L | -0.169 |
| Q41L | -0.144 |
| L38M | -0.303 |
| N42Q | -0.738 |
| T48W | -0.162 |
| M51F | -0.12 |
| Q55S | -0.236 |
| S43K | 0.144 |
| S47F | -0.0205 |
| A49T | -0.738 |

Sample 5 — method: aptamer microarray, sandwich; molecule type: DNA with 2'F-ANA; sample: in vitro; concentration: 200 nM; added: Cy3 exosite-II aptamer, 400 nM; reading: higher = stronger binding; strand: GGTTGGTGTGGTTGG
Target: Prothrombin, mature alpha-thrombin (F2, Homo sapiens, UniProt P00734)
Setting: whole 15-mer aptamer, many near background
| Modification | mean fluorescence intensity [a.u.] |
| --- | --- |
| 2'F-ANA at 2 3 5 7 10 14 15 | 50.2 |
| 2'F-ANA at 3 5 6 7 8 9 14 | 56 |
| 2'F-ANA at 3 6 10 11 13 15 | 430 |
| 2'F-ANA at 3 7 8 9 12 13 14 15 | 598 |
| 2'F-ANA at 2 3 4 6 7 8 10 11 12 14 15 | 151 |
| 2'F-ANA at 3 7 8 9 11 12 15 | 1400 |
| 2'F-ANA at 1 2 4 5 6 7 8 10 11 | 48 |
| 2'F-ANA at 1 2 3 6 7 8 9 12 14 15 | 90.5 |
| 2'F-ANA at 2 3 10 11 12 | 469 |
| 2'F-ANA at 1 2 4 5 8 12 13 14 15 | 45.7 |
| 2'F-ANA at 1 2 4 5 13 | 44.4 |
| 2'F-ANA at 3 4 6 7 9 11 13 15 | 366 |
| 2'F-ANA at 4 8 10 12 13 14 | 89.1 |
| 2'F-ANA at 6 7 8 10 12 13 15 | 189 |
| 2'F-ANA at 3 5 6 11 13 | 91.5 |
| 2'F-ANA at 4 5 6 7 8 9 11 12 13 14 15 | 63.7 |
| 2'F-ANA at 1 2 6 7 8 10 11 15 | 72.6 |
| 2'F-ANA at 2 4 5 7 9 10 13 14 15 | 54.9 |
| 2'F-ANA at 3 4 7 9 10 11 15 | 299 |
| 2'F-ANA at 2 4 6 9 10 12 14 15 | 64.3 |
| 2'F-ANA at 3 6 10 12 | 633 |

Sample 6 — method: RNA Bind-n-Seq; molecule type: RNA; sample: in vitro; concentration: 365 nM; reference: no-protein control; reading: higher = stronger binding
Target: RNA binding protein fox-1 homolog 2, RRM domain, GST-SBP tag (RBFOX2, Homo sapiens, UniProt O43251-10, residues 100-194)
Setting: natural RNA segment, single round, ends assumed
Shared flanks, not repeated: GGGAGUUCUACAGUCCGACGAUC … UGGAAUUCUCGGGUGCCAA
Construct (chain): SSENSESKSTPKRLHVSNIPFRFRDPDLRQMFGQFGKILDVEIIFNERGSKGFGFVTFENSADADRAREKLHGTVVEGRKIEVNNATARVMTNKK
| Strand | RBNS enrichment (R) |
| --- | --- |
| GGAAGCACUUGAUGGAGAGCUGCCCAGCUCUCCUACAAGGUUAGUGCCCUCCACCUAGGGAAGCAUGAACCACAGGGUCCCUGAGGGCCUUCGACAAAAGUGUGUAUUUG | 2.23 |
| GGACUUGGCCUGAGGCCUUUCGGGCCUCUCCAGUGGGUUCUGUUUAUCCUCUCAUGGGUGAUUAUCUCAGUGGUGUCACCAGGGGCUUCCUCCCAGAAGUCAGUCAUCCC | 0.315 |
| GCCCAGGAGUGGGGAGGCUUUGGCCAGGGAUGCUGCCACUUGUGCGUGAGUCCGCGGCUGGCCCUUGGAGGUGACCAUCCAGGCAGGCCUGGCUCAGACUGGAAGGGCUG | 0.94 |
| CCUCUCGGGACUCCUGUUGUAGGUGGUCCCAGUCACAAGAAACCCUCUCCAGGCAAGAGGCCAUUCAGUCUGUACAUUGUCGGGACCGGAGAGGUGGGACUGCCAUCUGG | 0.288 |
| UUCUCUACCCCUCCACCUUAAACAUAUAUUAUUAAAGACAGAAGAGAAAAUCCAACCCAUUGCAAGAAGCUCUUUGUGGGUGCCUGGUUACAUCGGAGCAGGGGAGCCUC | 1.28 |
| CCCCCUCUUUGUAUUCUCUUUGUAUUUUUCCCCUUCUUAAAAUUUCUUUUUCUGCAAUGAAGACAGAAAGAAGGCUCUGGGGUGAUGCGUUUGGCAUUUGUGUUGAGCUU | 0.61 |
| UGCAUGCUGGUACAAUCUCUUAGAAACUCCUAAGAUGGUUUGGGAAAAUACAGUGCAAUUAGUGAUGGCUAAAUACACAGUGCUUGGGAUUCAGUCUGUGUAACAUUUUC | 21.5 |
| ACGGGGAUGGCAACCAACAGGACUGCUAACACCUGGUGGACCAUUCUGAGUCGAUAGAAGCAGUGGUCAUCGUGUGUACUCCGACAUCUGAUGCUGUUCUCGAAAGAGAG | 0.247 |
| ACAUGGAAACAAAUAUUUGGGAGCCUGCAUAGUCUUUAGAUGGCUGCCAAAGCACUUAAAAUCUCCUUUAAAUUCUUACCAUAUGCUUACUUUUGUACUAAGUAAGUGCU | 0.641 |
| UCAUUUAAAGCAAAAUUAGGUAGAACAAACCAGUCAGUAAGAUUAGAAGUAUUACAGAGAAUCAUCCUUUUAAUCACAGAUCUUAUUUUGGAGUAAAACAAACUUCUAGC | 0.61 |
| CGCUGAACACCAUCCCGCCAUUAGCGCAUCGGAACCCCACACAGUUGCAACUCCCAACCCCGAAUCUUUGCAGCCGUUCGGCCCUGAAAGAUGCCCUAUCCAUGAGAUGC | 0.696 |
| UGUUUCUGUGUUACCAACAACAGCAGACUUCUAGCAUGUACUUAUCAAUGUUGUUCGGUCAGCCCUUCCCUAAUUACACCUAUCCCCUACACAUACAUGCACAUAGACAC | 2.62 |

Excerpt of the above (sample 5):
| Modification | mean fluorescence intensity [a.u.] |
| --- | --- |
| 2'F-ANA at 1 2 4 5 13 | 44.4 |
| 2'F-ANA at 3 4 6 7 9 11 13 15 | 366 |
| 2'F-ANA at 4 8 10 12 13 14 | 89.1 |
| 2'F-ANA at 6 7 8 10 12 13 15 | 189 |
| 2'F-ANA at 3 5 6 11 13 | 91.5 |
| 2'F-ANA at 4 5 6 7 8 9 11 12 13 14 15 | 63.7 |
| 2'F-ANA at 1 2 6 7 8 10 11 15 | 72.6 |
| 2'F-ANA at 2 4 5 7 9 10 13 14 15 | 54.9 |
| 2'F-ANA at 3 4 7 9 10 11 15 | 299 |
| 2'F-ANA at 2 4 6 9 10 12 14 15 | 64.3 |
| 2'F-ANA at 3 6 10 12 | 633 |
